Experimental data collected from several papers.
Protocols differ between the studies behind these lines. ± marks the error that the study gave.
VCP: Transitional endoplasmic reticulum ATPase (VCP, Homo sapiens, UniProt P55072)
Chain of UniProt P55072 (whole entry, looked up): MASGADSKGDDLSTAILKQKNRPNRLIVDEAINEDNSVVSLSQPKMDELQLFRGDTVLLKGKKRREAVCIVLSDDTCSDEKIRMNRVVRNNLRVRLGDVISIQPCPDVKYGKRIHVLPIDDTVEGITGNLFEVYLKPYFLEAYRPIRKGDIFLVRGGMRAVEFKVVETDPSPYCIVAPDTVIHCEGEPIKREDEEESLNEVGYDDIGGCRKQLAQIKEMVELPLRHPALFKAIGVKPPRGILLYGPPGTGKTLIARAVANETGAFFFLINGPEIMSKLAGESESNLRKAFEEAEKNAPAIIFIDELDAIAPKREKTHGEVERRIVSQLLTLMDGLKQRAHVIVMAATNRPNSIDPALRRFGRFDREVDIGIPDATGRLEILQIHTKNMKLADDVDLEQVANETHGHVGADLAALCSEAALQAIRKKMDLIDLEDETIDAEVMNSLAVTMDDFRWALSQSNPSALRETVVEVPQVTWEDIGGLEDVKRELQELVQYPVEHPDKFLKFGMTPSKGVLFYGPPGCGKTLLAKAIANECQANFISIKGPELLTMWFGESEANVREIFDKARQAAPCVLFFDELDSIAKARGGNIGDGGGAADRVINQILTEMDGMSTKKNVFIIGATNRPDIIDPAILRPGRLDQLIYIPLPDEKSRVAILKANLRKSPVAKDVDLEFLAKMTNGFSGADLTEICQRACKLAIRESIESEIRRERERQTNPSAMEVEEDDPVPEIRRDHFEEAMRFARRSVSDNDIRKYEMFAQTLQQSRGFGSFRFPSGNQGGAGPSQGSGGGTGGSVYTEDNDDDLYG
IRAK4: Interleukin-1 receptor-associated kinase 4 (IRAK4, Homo sapiens, UniProt Q9NWZ3)
Chain of UniProt Q9NWZ3 (whole entry, looked up): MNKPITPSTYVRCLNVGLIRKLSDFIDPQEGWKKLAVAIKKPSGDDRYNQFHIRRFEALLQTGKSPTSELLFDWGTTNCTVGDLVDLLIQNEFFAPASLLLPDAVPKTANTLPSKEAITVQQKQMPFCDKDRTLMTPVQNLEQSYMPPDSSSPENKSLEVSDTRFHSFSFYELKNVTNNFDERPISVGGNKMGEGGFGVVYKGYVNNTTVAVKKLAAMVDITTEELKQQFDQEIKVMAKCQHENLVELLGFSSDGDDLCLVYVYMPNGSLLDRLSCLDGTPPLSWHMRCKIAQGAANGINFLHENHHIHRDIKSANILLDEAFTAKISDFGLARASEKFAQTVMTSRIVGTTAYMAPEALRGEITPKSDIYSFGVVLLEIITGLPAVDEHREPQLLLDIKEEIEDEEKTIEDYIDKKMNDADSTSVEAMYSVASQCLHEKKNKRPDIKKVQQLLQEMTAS
ABCB1: ATP-dependent translocase ABCB1 (ABCB1, Homo sapiens, UniProt P08183)
Chain of UniProt P08183 (whole entry, looked up): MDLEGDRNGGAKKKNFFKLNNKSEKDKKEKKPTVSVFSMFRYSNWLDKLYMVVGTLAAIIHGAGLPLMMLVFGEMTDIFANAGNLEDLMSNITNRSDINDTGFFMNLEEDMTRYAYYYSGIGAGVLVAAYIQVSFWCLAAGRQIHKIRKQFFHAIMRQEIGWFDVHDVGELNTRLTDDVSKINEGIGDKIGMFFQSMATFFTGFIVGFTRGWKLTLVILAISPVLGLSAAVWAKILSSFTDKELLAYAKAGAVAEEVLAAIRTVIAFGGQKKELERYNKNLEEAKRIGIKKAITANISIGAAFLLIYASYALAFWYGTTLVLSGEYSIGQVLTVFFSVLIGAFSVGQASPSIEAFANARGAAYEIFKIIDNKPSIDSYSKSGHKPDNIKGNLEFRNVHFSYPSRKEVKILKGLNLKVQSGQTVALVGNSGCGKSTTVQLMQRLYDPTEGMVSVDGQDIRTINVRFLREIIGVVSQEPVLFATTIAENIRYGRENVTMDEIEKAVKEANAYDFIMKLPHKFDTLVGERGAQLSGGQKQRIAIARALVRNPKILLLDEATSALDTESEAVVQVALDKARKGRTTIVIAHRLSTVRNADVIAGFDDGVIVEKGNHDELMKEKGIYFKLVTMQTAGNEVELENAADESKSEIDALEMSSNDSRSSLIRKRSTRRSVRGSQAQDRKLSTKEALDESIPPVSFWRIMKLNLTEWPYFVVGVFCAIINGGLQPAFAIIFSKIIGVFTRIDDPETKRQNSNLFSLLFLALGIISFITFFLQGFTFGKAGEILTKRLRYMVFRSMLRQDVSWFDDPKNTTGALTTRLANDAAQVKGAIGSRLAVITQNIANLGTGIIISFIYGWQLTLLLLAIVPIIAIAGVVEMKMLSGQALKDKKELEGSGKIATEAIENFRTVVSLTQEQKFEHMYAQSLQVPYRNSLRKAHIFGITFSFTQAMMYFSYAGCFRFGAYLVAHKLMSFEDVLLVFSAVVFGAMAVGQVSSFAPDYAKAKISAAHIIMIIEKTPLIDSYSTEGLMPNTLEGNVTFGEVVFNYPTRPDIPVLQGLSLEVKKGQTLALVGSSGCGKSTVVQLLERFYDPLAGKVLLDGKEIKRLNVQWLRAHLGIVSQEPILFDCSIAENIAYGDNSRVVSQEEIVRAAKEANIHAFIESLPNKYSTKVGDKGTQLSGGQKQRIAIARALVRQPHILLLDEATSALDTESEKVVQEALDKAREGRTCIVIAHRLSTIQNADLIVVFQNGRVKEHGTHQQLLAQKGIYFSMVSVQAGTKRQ
17-beta-hydroxysteroid dehydrogenase 13: 17-beta-hydroxysteroid dehydrogenase 13 (Homo sapiens, UniProt Q7Z5P4)
Chain of UniProt Q7Z5P4 (whole entry, looked up): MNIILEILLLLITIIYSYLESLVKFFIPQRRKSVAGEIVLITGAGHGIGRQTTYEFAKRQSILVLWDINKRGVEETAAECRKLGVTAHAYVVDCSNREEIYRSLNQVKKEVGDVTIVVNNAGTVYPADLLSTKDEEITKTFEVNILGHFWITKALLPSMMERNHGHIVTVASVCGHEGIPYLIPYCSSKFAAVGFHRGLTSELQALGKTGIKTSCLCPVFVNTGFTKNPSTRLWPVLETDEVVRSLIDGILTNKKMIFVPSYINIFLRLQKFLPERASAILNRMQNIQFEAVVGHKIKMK
Chain of UniProt Q8NE63 (whole entry, looked up): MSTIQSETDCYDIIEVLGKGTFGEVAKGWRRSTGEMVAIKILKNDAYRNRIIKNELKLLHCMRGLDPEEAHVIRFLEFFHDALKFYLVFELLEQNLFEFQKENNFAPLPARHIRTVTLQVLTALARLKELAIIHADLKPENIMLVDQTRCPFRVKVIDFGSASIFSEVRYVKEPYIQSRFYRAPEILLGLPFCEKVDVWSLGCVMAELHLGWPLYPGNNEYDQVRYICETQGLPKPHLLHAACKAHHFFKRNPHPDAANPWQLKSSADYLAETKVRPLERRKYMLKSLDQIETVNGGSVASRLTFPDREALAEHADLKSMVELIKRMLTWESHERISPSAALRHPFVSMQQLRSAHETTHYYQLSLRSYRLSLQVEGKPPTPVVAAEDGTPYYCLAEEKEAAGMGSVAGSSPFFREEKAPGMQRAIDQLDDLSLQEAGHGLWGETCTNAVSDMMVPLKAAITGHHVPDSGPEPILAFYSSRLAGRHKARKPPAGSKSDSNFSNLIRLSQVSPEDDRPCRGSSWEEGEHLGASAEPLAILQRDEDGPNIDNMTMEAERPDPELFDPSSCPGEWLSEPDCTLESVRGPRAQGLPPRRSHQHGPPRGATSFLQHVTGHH
Chain of UniProt Q91XE4 (whole entry, looked up): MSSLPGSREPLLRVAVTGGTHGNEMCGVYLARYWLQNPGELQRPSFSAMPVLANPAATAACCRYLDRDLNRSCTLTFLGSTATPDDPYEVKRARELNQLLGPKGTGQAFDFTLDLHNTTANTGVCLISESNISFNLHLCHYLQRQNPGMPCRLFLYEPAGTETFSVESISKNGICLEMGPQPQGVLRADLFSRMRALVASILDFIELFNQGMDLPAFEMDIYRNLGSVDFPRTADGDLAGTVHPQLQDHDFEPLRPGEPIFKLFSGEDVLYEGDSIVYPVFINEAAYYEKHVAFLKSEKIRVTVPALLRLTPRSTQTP
Chain of UniProt P37173 (whole entry, looked up): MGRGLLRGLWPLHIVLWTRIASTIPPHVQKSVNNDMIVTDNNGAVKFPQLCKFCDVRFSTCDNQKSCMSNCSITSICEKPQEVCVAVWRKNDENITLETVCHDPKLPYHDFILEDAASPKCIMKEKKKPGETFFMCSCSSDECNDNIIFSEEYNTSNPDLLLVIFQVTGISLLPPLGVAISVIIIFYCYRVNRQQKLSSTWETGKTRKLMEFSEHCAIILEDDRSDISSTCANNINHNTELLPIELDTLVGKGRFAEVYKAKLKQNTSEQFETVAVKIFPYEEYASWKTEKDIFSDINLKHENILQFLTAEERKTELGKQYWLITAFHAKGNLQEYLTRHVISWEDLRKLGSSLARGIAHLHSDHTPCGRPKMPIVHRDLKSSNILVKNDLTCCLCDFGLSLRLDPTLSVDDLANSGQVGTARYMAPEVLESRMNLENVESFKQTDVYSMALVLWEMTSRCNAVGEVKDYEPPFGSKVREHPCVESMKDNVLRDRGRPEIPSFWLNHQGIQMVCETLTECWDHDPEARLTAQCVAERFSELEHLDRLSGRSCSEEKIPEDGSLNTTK
Chain of UniProt Q9R1P1 (whole entry, looked up): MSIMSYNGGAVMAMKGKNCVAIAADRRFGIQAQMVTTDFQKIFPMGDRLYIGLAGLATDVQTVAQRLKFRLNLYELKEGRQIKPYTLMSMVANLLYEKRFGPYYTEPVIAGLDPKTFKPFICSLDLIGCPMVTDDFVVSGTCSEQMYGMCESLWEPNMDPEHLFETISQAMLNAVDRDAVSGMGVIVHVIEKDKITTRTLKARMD
Chain of UniProt O35955 (whole entry, looked up): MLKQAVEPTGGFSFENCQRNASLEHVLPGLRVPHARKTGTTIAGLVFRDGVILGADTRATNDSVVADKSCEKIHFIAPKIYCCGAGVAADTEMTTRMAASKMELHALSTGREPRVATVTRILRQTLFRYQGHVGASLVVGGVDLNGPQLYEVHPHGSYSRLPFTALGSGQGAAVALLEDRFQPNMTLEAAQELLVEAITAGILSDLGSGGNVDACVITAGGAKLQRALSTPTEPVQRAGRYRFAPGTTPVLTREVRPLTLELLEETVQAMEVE

| Compound | target | assay | test system | conditions | IC50 |
| --- | --- | --- | --- | --- | --- |
| Nc1nc2ccccc2n1-c1nc2c(c(NCc3ccccc3)n1)CCCC2 | VCP | enzyme activity, inhibitor |  |  | 50 nM |
| Oc1c(I)cc(Cl)c2cccnc12 | N-acyl-aromatic-L-amino acid amidohydrolase (carboxylate-forming) (Acy3, Mus musculus, UniProt Q91XE4) |  |  | together with: NA-Tyr substrate | 10100 nM |
| COc1cccc2c(NCc3ccccn3)nc(N3CCOc4ccccc43)nc12 | VCP | enzyme activity, inhibitor |  |  | 19000 ± 5000 nM |
| C#Cc1cnc(Nc2ccc(CO)cc2)nc1Nc1ccccc1C(=O)NC | IRAK4 |  |  | cell-based | 15.5 ± 0.98 nM |
| Fc1ccc(-c2nc(C3CCCCC3)[nH]c2-c2ccncc2)cc1 | TGFBR2 (Homo sapiens, UniProt P37173) | inhibitor |  |  | 245 ± 40.2 nM |
| Clc1ccc(-c2nc(NCc3ccccc3)c3ccccc3n2)c(Cl)c1 | VCP | enzyme activity, inhibitor |  |  | > 30000 nM |
| CC[C@@H]1[C@H](F)C(=O)N[C@@H]1COc1nccc2cc(C(N)=O)c(OC)cc12 | PIKFYVE (Homo sapiens, UniProt Q9Y2I7) | ATP-site binding, ActivX kinase profiling | THP-1 cell lysate | PIP5K3 ATP-site probe peptide | > 5000 nM |
| CC[C@H](C)[C@H](NC(=O)[C@H](CS)NC(=O)[C@H](CCC(=O)O)NC(=O)[C@H](C)NC(=O)[C@@H](NC(=O)[C@@H](N)CCCNC(=N)N)[C@@H](C)CC)C(=O)N[C@@H](CC(C)C)C(=O)NCC(=O)N[C@@H](CCSC)C(=O)O | HLA class I histocompatibility antigen, A alpha chain, allele A*01:01 (Homo sapiens, UniProt P04439) | binding, competitor, radioligand competition |  | two days, room temperature, HLA-A*01:01 | > 40000 nM |
| COc1cc(C(=O)c2c[nH]c3cc(-c4cc5ccccc5o4)ccc23)cc(OC)c1OC | Tubulin alpha-1B chain/TUBB2B (Bos taurus, UniProt P81947+Q6B856) | tubulin polymerization, inhibitor, turbidimetric |  | together with: 10 µM bovine tubulin | > 20000 nM |
| Cc1cc2c(F)c(Oc3ncnn4cc(OC[C@@H](C)O)c(C)c34)ccc2[nH]1 | ABCB1 | inhibitor |  | 30 min | 18400 nM |
| COc1ccc(-c2nc(NCc3ccc(Cl)cc3)c3ccccc3n2)cc1 | VCP | enzyme activity, inhibitor |  |  | 8000 ± 2000 nM |
| CC(C)C[C@H](NC(=O)[C@H](CCc1ccccc1)NC(=O)CN1CCOCC1)C(=O)N[C@@H](Cc1ccccc1)C(=O)N[C@@H](CC(C)C)C(=O)[C@@]1(C)CO1 | Psmb10/Psmb3 (Mus musculus, UniProt O35955+Q9R1P1) | proteasome subunit activity | Ba/F3 BCR-ABL1 p210 | 1 h pulse | 63.3 ± 8.87 nM |
| CN(Cc1ccccc1)c1nc(-c2ccc([N+](=O)[O-])cc2)nc2ccccc12 | VCP | enzyme activity, inhibitor |  |  | 8400 ± 4000 nM |
| Cn1cc2c(C(=O)O)ccc(NS(=O)(=O)c3ccc(Cl)c(Cl)c3)c2n1 | 17-beta-hydroxysteroid dehydrogenase 13 | inhibitor, NAD(P)H-Glo |  | together with: β-estradiol | 85 nM |
| Cc1ccc(C(=O)Nc2ccnc(S(N)(=O)=O)c2)c(N2CCCC(F)(F)CC2)n1 | SCN4A (Homo sapiens, UniProt P35499) | Nav1.4 sodium current, inhibitor, automated patch clamp |  |  | 8370 ± 1430 nM |
| CCS(=O)(=O)N1CC(CC#N)(n2cc(-c3ncnc4[nH]ccc34)cn2)C1 | ABCB1 | transport, inhibitor | inside-out membrane vesicles | together with: [3H]vinblastine substrate | no inhibition |
| CN1CCN(c2ccc(Nc3ncc4cc(C#N)c(=O)n(C5CCCC5)c4n3)cc2)CC1 | HIPK4 (Homo sapiens, UniProt Q8NE63) |  |  |  | 1620 nM |

| Compound | target | assay | test system | conditions | IC50 |
| --- | --- | --- | --- | --- | --- |
| COc1cc2nccc(Oc3ccc(NC(=O)c4cc5c(n(-c6ccccc6)c4=O)CCCC5=O)nc3)c2cc1OC | HCK (Homo sapiens, UniProt P08631) | cell viability, CellTiter-Glo | Ba/F3 expressing recombinant kinase | 48 h | > 100 nM |
| CCOC(F)(F)c1nnc2cnc(-c3cnc(OCC(F)(F)F)c(F)c3)cn12 | uncharacterized protein (Canis lupus familiaris, UniProt A0A8I3NWP9) | persistent sodium current, inhibitor, patch clamp |  | together with: ATX-II | 137 nM |
| N#Cc1ccc2c(NCc3ccccc3)nc(NCc3ccccc3)nc2c1 | VCP | enzyme activity, inhibitor |  |  | 25000 ± 10000 nM |
| Cn1cc2c(C(=O)O)ccc(NS(=O)(=O)c3ccc(OCC4CCC4)c(Cl)c3)c2n1 | 17-beta-hydroxysteroid dehydrogenase 13 | inhibitor, NAD(P)H-Glo |  | together with: β-estradiol | 10 nM |
| COc1ccnc(CNC(=O)c2cn(Cc3ccc(Cn4ccccc4=O)cc3)nc2C2CC2)c1F | F10 (Homo sapiens, UniProt P00742) |  |  |  | 8600 nM |
| COc1ccc(-c2ccc3ncc4c(c3c2)n([C@@H]2CCN(C)CC2(F)F)c(=O)n4C)cn1 | IRAK4 | enzyme activity, inhibitor |  |  | 195 ± 2 nM |
| COc1cc(N2CCC(N3CCN(C)CC3)CC2)ccc1Nc1ncc(Cl)c(Nc2ccccc2P(C)(C)=O)n1 | ABCB1 | inhibitor |  |  | 1760 nM |
| Cc1cnc(-c2ccc(-c3ccc(NC(=O)Nc4c(F)cc(F)cc4F)cc3F)c3c2C(=O)NC3)[nH]1 | Aurora kinase B (AURKB, Homo sapiens, UniProt Q96GD4) | enzyme activity, inhibitor |  |  | 32.7 nM |
| Cc1cc(OC(C)C)ccc1C(=O)C(C)(C)NC(=O)c1sccc1C | mitochondrial complex II-III (succinate-cytochrome c oxidoreductase), Solanum tuberosum | enzyme activity, inhibitor | cv Norin No. 1, potato tuber mitochondrial fraction | 25 °C | > 1 µg/mL |
| Fc1ccc(CNc2nc(-c3ccc(Cl)cc3)nc3ccccc23)cc1 | VCP | enzyme activity, inhibitor |  |  | 8000 ± 200 nM |
| CNC(=O)c1ccccc1Nc1nc(Nc2ccc(CO)cc2)ncc1Cl | IRAK4 |  |  | cell-based | 15.2 ± 1.29 nM |
| CC/C(=N\NC(=O)NCc1cccc(O)c1)c1ccc(O)c(C)c1O | RPS6KA5 (Homo sapiens, UniProt O75582) | kinase activity, inhibitor |  |  | 3.72 ± 0.1 nM |
| CNC(=O)c1ccccc1Nc1nc(Nc2ccc(CO)nc2)ncc1Cl | IRAK4 |  |  | cell-based | 45.4 ± 3.81 nM |
| CC(Nc1nc(-c2ccccc2F)nc2ccccc12)c1ccccc1 (stereo not drawn) | VCP | enzyme activity, inhibitor |  |  | > 30000 nM |
| O=C(O)c1ccc(NS(=O)(=O)c2ccc(Cl)c(Cl)c2)cc1F | 17-beta-hydroxysteroid dehydrogenase 13 | inhibitor, NAD(P)H-Glo |  | together with: β-estradiol | 140 nM |
| O=c1nc(SCc2cc(F)cc(C(F)(F)F)c2)nc(SCc2ccc3sccc3c2)[nH]1 | TOP2A (Homo sapiens, UniProt P11388) | ATPase activity, inhibitor, competitive ATPase |  | together with: 2 mM ATP | 9500 nM |

A few entries again:
| Compound | target | assay | test system | conditions | IC50 |
| --- | --- | --- | --- | --- | --- |
| Oc1c(I)cc(Cl)c2cccnc12 | N-acyl-aromatic-L-amino acid amidohydrolase (carboxylate-forming) (Acy3, Mus musculus, UniProt Q91XE4) |  |  | together with: NA-Tyr substrate | 10100 nM |
| COc1cccc2c(NCc3ccccn3)nc(N3CCOc4ccccc43)nc12 | VCP | enzyme activity, inhibitor |  |  | 19000 ± 5000 nM |
| C#Cc1cnc(Nc2ccc(CO)cc2)nc1Nc1ccccc1C(=O)NC | IRAK4 |  |  | cell-based | 15.5 ± 0.98 nM |
| Fc1ccc(-c2nc(C3CCCCC3)[nH]c2-c2ccncc2)cc1 | TGFBR2 (Homo sapiens, UniProt P37173) | inhibitor |  |  | 245 ± 40.2 nM |
| Clc1ccc(-c2nc(NCc3ccccc3)c3ccccc3n2)c(Cl)c1 | VCP | enzyme activity, inhibitor |  |  | > 30000 nM |
